Measurements of several laboratories.
Each numbered part is a random draw from the data of one study; scales do not carry over between parts. Values joined by “and” are separate records of one study, mostly repeats; a detail may differ.

Series 1 — read-out: enzyme activity; action: inhibitor; tested at: 20 µM; setting: primary screen
Target: Replicase polyprotein 1ab, main protease (rep, Severe acute respiratory syndrome coronavirus 2, UniProt P0DTD1)
SMILES	inhibition [%]
O=C1C=CC(=O)C2=C1C1c3ccccc3C2c2ccccc21	99.2
O=C(C=Cc1ccc(O)c2c1C(C(=O)OC(Cc1ccc(O)c(O)c1)C(=O)O)C(c1ccc(O)c(O)c1)O2)OC(Cc1ccc(O)c(O)c1)C(=O)O (centres unmarked)	90.8
O=C1C2CC=CCC2C(=O)N1SC(Cl)(Cl)Cl (centres unmarked)	99.8
O=C(NC(=S)N1CCCc2ccccc21)c1ccccc1	74.9

Series 2 — read-out: helicase activity; action: inhibitor; technique: high-content helicase; organism: SARS-CoV-2; tested at: 20 µM
Target: Replicase polyprotein 1ab, nsp13 helicase (rep, Severe acute respiratory syndrome coronavirus 2, UniProt P0DTD1)
SMILES	inhibition
CCOC(=O)C1=C(N)Oc2ccc(Br)cc2[C@H]1[C@H](C#N)C(=O)OCC	98% and 97.5%
Cc1ccc(S(=O)(=O)/C=C/C#N)cc1	101%
CC(C)N[C@@H]1CCn2c(=O)[nH]c3cccc(c32)[C@H]1O	89.2%
CC(=O)OC[C@H]1O[C@@H]([S-])[C@H](OC(C)=O)[C@@H](OC(C)=O)[C@@H]1OC(C)=O.CCP(CC)CC.[Au+]	101%
O=C(O)c1ccc(N2C(=O)/C(=C\c3ccc(-c4ccc([N+](=O)[O-])cc4)o3)C=C2c2ccccc2)cc1	87.6%
Nc1nnc(Sc2ncc([N+](=O)[O-])s2)s1	102%
CCn1c(N)c(C(=O)NC)c(=O)c2ccc(C#C[C@@](C)(O)COC)nc21	91.2%
O=C1C=CC(=O)C2=C1C1c3ccccc3C2c2ccccc21	102%
CC1(C)C(/C=C/C=C/C=C/C=C2\N(CCCCS(=O)(=O)O)c3ccc4ccccc4c3C2(C)C)=[N+](CCCCS(=O)(=O)[O-])c2ccc3ccccc3c21	102%
CC(=O)[O][Pt]([NH2])([Cl])([Cl])([NH]C1CCCCC1)[O]C(C)=O	100%

Series 3 — technique: protein binding microarray; form: double-stranded DNA, one strand shown; matrix: in vitro; tested at: not given; baseline: not given; reading: higher = stronger binding
Target: Histone acetyltransferase KAT6A, both winged helices, GST fusion (KAT6A, Homo sapiens, UniProt Q92794, residues 1-181)
Setting: 8-mer, flanks averaged, mean of 2 arrays, mostly near background
Target sequence (chain): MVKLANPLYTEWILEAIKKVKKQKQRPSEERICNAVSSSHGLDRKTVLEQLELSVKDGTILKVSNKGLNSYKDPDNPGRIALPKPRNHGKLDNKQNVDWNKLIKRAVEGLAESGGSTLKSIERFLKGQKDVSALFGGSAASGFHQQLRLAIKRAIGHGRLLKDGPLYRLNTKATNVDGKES
Sequence	E-score
GCACTGTA	0.0487
CAGAGCCC	-0.12
AGCATGAT	-0.186
AAAAAATA	-0.136
CGTTTAGC	0.252
TATCGTAA	0.17
CCAAACGA	-0.022
GAACTACC	-0.0636

Further values, each from its own experiment
Structure (SMILES)	cell line	organism	tested at	time	measurement	result
OCCOCCN1CCN(C2=Nc3ccccc3Sc3ccccc32)CC1	HEK-293T	VSV pseudotyped with SARS-CoV-2 spike	10 µM	16 h	pseudovirus infection	123%

For quick reference, copied from above (series 1):
SMILES	inhibition [%]
O=C(C=Cc1ccc(O)c2c1C(C(=O)OC(Cc1ccc(O)c(O)c1)C(=O)O)C(c1ccc(O)c(O)c1)O2)OC(Cc1ccc(O)c(O)c1)C(=O)O (centres unmarked)	90.8
O=C1C2CC=CCC2C(=O)N1SC(Cl)(Cl)Cl (centres unmarked)	99.8
O=C1C=CC(=O)C2=C1C1c3ccccc3C2c2ccccc21	99.2
O=C(NC(=S)N1CCCc2ccccc21)c1ccccc1	74.9
